Assay results from different studies.
Lines come from different studies, so protocols differ. Values joined by “and” are separate records of one study, mostly repeats; a detail may differ. Numbers after ± are the reported error.

SMILES	cell line	test	system	setting	how to read	measurement	result
CC(=O)Nc1cccc(-n2c(=O)n(C3CC3)c(=O)c3c(Nc4ccc(I)cc4F)n(C)c(=O)c(C)c32)c1	LoVo (KRAS G13D)	resazurin		50.00 nM, 72 h, unit not given	baseline: DMSO	viability	0.367 and 0.323
FC(F)(F)CN1CC(n2cc(Oc3ccn4nc(Cl)cc4n3)cn2)C1	Caco-2/TC7			1 µM	baseline: B-A over A-B	efflux ratio	1.7
Cc1ccc(S(=O)(=O)Nc2nc(N)c(-c3nc4ccccc4s3)c(-c3ccccc3)n2)cc1	BGM	cytotoxicity		72 h		maximum non-toxic concentration	90 µg/mL
CSc1c(-c2nc3ccccc3[nH]2)c(N)n(NS(=O)(=O)c2ccccc2)c(=O)c1C#N	BGM			72 h		maximum non-toxic concentration	100 µg/mL
Cc1noc(C)c1Cn1cc(N2C(=O)CN(Cc3cccc(O)c3)C2=O)cn1	human blood lymphocytes			200 µg/mL, 21 h		aberrant cells without gaps	2%
CSc1nc(NS(=O)(=O)c2ccccc2)nc(N)c1-c1nc2ccccc2s1	BGM	cytotoxicity		72 h		maximum non-toxic concentration	90 µg/mL
O=c1c2ccccc2sn1-c1ccc(F)cc1	TZM-bl	viability				CC50	> 100 µM
Cc1ccc(-c2nc(N)nc(N)c2-c2nc3ccccc3s2)cc1	BGM	cytotoxicity		72 h		maximum non-toxic concentration	100 µg/mL
COc1ccc(S(=O)(=O)ON=C2C=C(C)C(=O)C(C)=C2)cc1	ZR-75-1	cell viability				CC50	8.91 µM
CCSC(SCC)=C(C#N)c1nc2ccccc2s1	BGM			72 h		maximum non-toxic concentration	110 µg/mL
CCCC(CCC)NC(=O)c1ccc2c(c1)OCO2	CHO-WBL			0.56 mg/mL, 3 h, with rat liver S9		cells with aberrations	0.5%
Cc1ccc(S(=O)(=O)Nc2nc(N)c(-c3nc4ccccc4s3)c(-c3ccc(Cl)cc3)n2)cc1	BGM	cytotoxicity		72 h		maximum non-toxic concentration	100 µg/mL
CCCN1CCCC[C@H]1C(=O)Nc1c(C)cccc1C	C2C12 myotubes	MTS		1 to 3 mM, 24 h	baseline: prilocaine	viability	decreased
C[C@H]1[C@H](OC(=O)CCC(=O)O)O[C@@H]2O[C@@]3(C)CC[C@H]4[C@H](C)CC[C@@H]1[C@@]24OO3	human iPSC-derived endothelial cells	cell viability		72 h		highest non-toxic concentration	> 10 µM
Cc1ccc(S(=O)(=O)Oc2ccc(NC(=O)c3cnccn3)cc2)cc1	1321N1 astrocytoma	MTT		100 µM, 24 h		viability	81.2 ± 0.88%
CCOC(=O)c1cc(C#N)c(=O)n(NS(=O)(=O)c2ccc(C)cc2)c1N	BGM			72 h		maximum non-toxic concentration	90 µg/mL
CC(C)(O)CC(=O)NCCn1ccc2ncnc(Nc3ccc(Oc4cccc(C(F)(F)F)c4)c(Cl)c3)c21	Ba/F3 IL-3-dependent	cell proliferation		48 h, counter-screen		CC50	> 10 µM
COc1ccc(Cn2cc(CO[C@@H]3O[C@H]4[C@H](OC[C@H]4O)[C@H]3O)nn2)cc1	CAL-51	cytotoxicity, CellTiter-Glo		up to 30 µM, 72 h		viability	not toxic
CC(=O)CNc1nc(NS(=O)(=O)c2ccccc2)ncc1-c1nc2ccccc2s1	BGM	cytotoxicity		72 h		maximum non-toxic concentration	60 µg/mL

SMILES	cell line	test	system	setting	how to read	measurement	result
O=C(O)C1=CC(=C(c2ccc(O)c(C(=O)O)c2)c2ccc(O)c(C(=O)O)c2)C=CC1=O	MC-38	cell proliferation, IncuCyte confluence		100 µM		inhibition	< 5%
COc1c(C)c(OS(=O)(=O)c2ccc3ccccc3c2)c(C)c(OS(=O)(=O)c2ccc3ccccc3c2)c1C(=O)/C=C/c1ccccc1	normal human liver cell line	cytotoxicity, SRB		72 h		IC50	> 50 µM
C[C@]12CC[C@@H]3c4ccc(O)cc4C[C@@H](CCCCCCCCC[S+]([O-])CCCC(F)(F)C(F)(F)F)[C@H]3[C@@H]1CC[C@@H]2O (some centres unmarked)	LCC2 tamoxifen-resistant	CCK-8		50 nM	baseline: untreated	viability	94.8% and 86.6% and 96.6%
CCOC(=O)c1cc(C#N)c(=O)n(NS(=O)(=O)c2ccccc2)c1N	BGM			72 h		maximum non-toxic concentration	90 µg/mL
O=C(CNc1nc(NS(=O)(=O)c2ccccc2)ncc1-c1nc2ccccc2s1)c1ccc(Br)cc1	BGM	cytotoxicity		72 h		maximum non-toxic concentration	120 µg/mL
Cc1ccc(S(=O)(=O)Nn2c(N)c(C#N)cc(C#N)c2=O)cc1	BGM			72 h		maximum non-toxic concentration	90 µg/mL
COc1cccc2c1C(=O)c1c(O)c3c(c(O)c1C2=O)C[C@@](O)(C(=O)CO)C[C@@H]3O[C@H]1C[C@H](N)[C@H](O)[C@H](C)O1	BNL mouse liver cells	SRB		1 µM, 10% fetal bovine serum		viability	91.7%
COc1cccc2c1C(=O)c1c(O)c3c(c(O)c1C2=O)C[C@@](O)(C(=O)CO)C[C@@H]3O[C@H]1C[C@H](N)[C@H](O)[C@H](C)O1	HFF foreskin fibroblasts	cell viability, MTT		48 h, 10% FBS		CC50	15.4 µM
Cc1ccc(S(=O)(=O)Nn2c(N)c(-c3nc4ccccc4s3)c3[nH]nc(N)c3c2=O)cc1	BGM			72 h		maximum non-toxic concentration	90 µg/mL
Cc1cc(C(=O)NC(C)(C)COc2cccc3c2C(N)=NS(=O)(=O)N3)cc(C)n1	human peripheral blood lymphocytes	CBPI, preliminary test		0.2 µg/mL, 24 h	baseline: vehicle control	cytotoxicity	-10%
COc1ccc(NC(=S)N/N=C/c2cccc3cc4ccccc4nc23)cc1	HeLa	annexin V/PI		IC12.5, 48 h, together with: NAC		viable cells	87.45 ± 0.65%
Nc1nc(NS(=O)(=O)c2ccccc2)nc(-c2ccc(F)cc2)c1-c1nc2ccccc2s1	BGM	cytotoxicity		72 h		maximum non-toxic concentration	100 µg/mL
COc1cc2ncnc(Nc3ccc(Oc4ccccc4)c(C)c3C)c2cc1OC.Cl	MeWo (NF1 mutant)	resazurin		3 µM, 72 h, unit not given, together with: trametinib	baseline: DMSO	viability	0.796
CCCCCCCCCCCC(=O)Oc1c(C)c(O)c(C(=O)/C=C/c2ccccc2)c(OC)c1C	normal human liver cell line	cytotoxicity, SRB		72 h		IC50	> 50 µM
CCN(CC)C(=S)SSC(=S)N(CC)CC	differentiated LUHMES MT1G::HiBiT-G2 neurons	cytotoxicity	3D neurospheres	24 h		AC50	< 1 µM
COc1ccc(-c2nc(N)nc(N)c2-c2nc3ccccc3s2)cc1	BGM	cytotoxicity		72 h		maximum non-toxic concentration	70 µg/mL
C[C@]12CC[C@@H]3c4ccc(OS(=O)(=O)O)cc4CC[C@H]3[C@@H]1CCC2=O	Caco-2 cells			together with: novobiocin	baseline: without over with novobiocin	efflux ratio	10.7
Cc1cc(C)c(CNC(=O)c2cc(Cl)c3c(c2C)O[C@@](C)([C@H]2CC[C@H](N(C)C)CC2)O3)c(=O)[nH]1	Caco-2			30 µM		Papp A to B	5.64 ± 1.23 nm/s
N#C/C=C/c1ccc2c(S(=O)(=O)n3nc(Nc4ccc(C#N)c(Cl)c4)nc3N)cccc2c1	TZM-bl	CellTiter-Blue		48 h		CC50	~5 µM

Some of these lines once more:
SMILES	cell line	test	system	setting	how to read	measurement	result
CCN(CC)C(=S)SSC(=S)N(CC)CC	differentiated LUHMES MT1G::HiBiT-G2 neurons	cytotoxicity	3D neurospheres	24 h		AC50	< 1 µM
COc1ccc(-c2nc(N)nc(N)c2-c2nc3ccccc3s2)cc1	BGM	cytotoxicity		72 h		maximum non-toxic concentration	70 µg/mL
C[C@]12CC[C@@H]3c4ccc(OS(=O)(=O)O)cc4CC[C@H]3[C@@H]1CCC2=O	Caco-2 cells			together with: novobiocin	baseline: without over with novobiocin	efflux ratio	10.7
Cc1cc(C)c(CNC(=O)c2cc(Cl)c3c(c2C)O[C@@](C)([C@H]2CC[C@H](N(C)C)CC2)O3)c(=O)[nH]1	Caco-2			30 µM		Papp A to B	5.64 ± 1.23 nm/s
